Measurements of several laboratories.
Parts stem from different laboratories: compare values within a part only. Changes are numbered by the printed parent chain.

Study 1
Target: Phosphate system positive regulatory protein PHO4, full length, GST-tagged (PHO4, Saccharomyces cerevisiae, UniProt P07270, residues 1-312)
Technique: competition protein-binding microarray
Form: double-stranded DNA, one strand shown
Matrix: in vitro
Concentration: 2 µM
Setting: whole 60-bp probe, lowest competitor level
With: Cbf1 competitor, 0.05 µM
Reading: higher = stronger binding
Measurement: fluorescence intensity
Shared flanks, not repeated: … GTCTTGATTCGCTTGACGCTGCTG
Target sequence (chain): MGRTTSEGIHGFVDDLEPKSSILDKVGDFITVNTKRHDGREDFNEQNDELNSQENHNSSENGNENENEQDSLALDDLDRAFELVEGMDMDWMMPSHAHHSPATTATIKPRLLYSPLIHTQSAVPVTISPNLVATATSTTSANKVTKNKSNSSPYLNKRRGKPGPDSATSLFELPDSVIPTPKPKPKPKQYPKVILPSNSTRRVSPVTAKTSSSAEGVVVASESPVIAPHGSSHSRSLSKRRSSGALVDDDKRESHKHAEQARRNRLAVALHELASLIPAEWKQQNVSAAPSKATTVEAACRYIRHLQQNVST
TCCGCGATCGCCGGCCACGGGCCGTCGGCGGCTGTT: 6350 a.u.
TGTATCCTTTGTAGGCTCGTGCTGTATCAACCTACT: 11200 a.u.
CCTTCGAAGAAGTTGTTCGTGCCAGCCACAACGGAG: 5870 a.u.
GCTCAAAAACCCCGTCACGTCATAAATCTTTCTGTT: 4640 a.u.
CATACCCAACCTTGCCATGTGGGTGAAGATATTTGT: 10100 a.u.
CTTTCCCGATCTTGGTGCGTGGGTGTAGCACATTTG: 9760 a.u.
CTAACGAAGGTTTGGGCTGTGGGTGACAAGCCAAGT: 4250 a.u.
AGAGTTTGCAGAGTCCATGTGTCAAGAATTAGAACT: 7710 a.u.

Study 2
Target: RING finger protein unkempt homolog, zinc fingers 1-6, GST-SBP tag (UNK, Homo sapiens, UniProt Q9C0B0, residues 30-357)
Chain of UniProt Q9C0B0 (30-357, looked up): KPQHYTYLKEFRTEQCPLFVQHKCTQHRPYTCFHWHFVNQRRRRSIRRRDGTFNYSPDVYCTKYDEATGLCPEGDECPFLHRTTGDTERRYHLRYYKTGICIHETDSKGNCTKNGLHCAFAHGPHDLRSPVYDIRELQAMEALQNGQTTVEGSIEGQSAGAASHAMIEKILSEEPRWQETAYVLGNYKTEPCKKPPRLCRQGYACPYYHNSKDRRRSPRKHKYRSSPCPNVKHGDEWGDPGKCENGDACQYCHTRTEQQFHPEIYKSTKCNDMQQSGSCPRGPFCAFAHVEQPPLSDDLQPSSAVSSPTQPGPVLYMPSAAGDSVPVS
Technique: RNA Bind-n-Seq
Form: RNA
Matrix: in vitro
Concentration: not given
Setting: RNA with constant flanks, human-mouse chimeric sites, ends assumed
Reference: input RNA pool
Reading: higher = stronger binding
Measurement: bound/input enrichment
Shared flanks, not repeated: GGGAGUUCUACAGUCCGACGAUC … CAACAGAGGAUUGAGCAUCA
AAAGUGAUGACUAUGUUUGUCCAACGACAGGUAUUUUCGGAGAGCAAAGAUGAGAUUGCGUUAGUCCUCUAUGGCACAGAUGGCACUGACAAUCCCCUUGCUGGCAAGGACCAGUAUCAG: 0.163 ratio
UAAAUUAGCCAGCACCAUUUCUGUUUCUCCCUGGGCUGCGGAAAGCCAGAAGAUUUUAUCUAGCUUAAACCAGGCUGCUGGUGUUCCCUCUUUUUUUCCACGAGGGUGUUUUUGGCUGCA: 0.733 ratio
AAAGAGAAACUAAAGCAACUAAUAGAGAAGAGGAUUGGCAAAGAGAAAUUUCAUAGAAAACUAGGAUUUAUUAGCAAACAUGAGUUAUAUUCCAGAGCGUCUCAGAAAACCCCAGCCAAC: 14.8 ratio
GAAUCCUACUCAGGCGGUCCCACAACAACCAAGCUCACAGCAGCAGCAUCUUAGUCACAGUAGGGUAGUUUUGGGGCUCUGUGGCCAGGGUUUUAUUCAUGUGCAGGUUUGGAAAAUGUA: 0.988 ratio
AGAGCCCAGGAUGUUGAUGCUACAAAUCCAAAUUACGAAAUUAUGUGUAUGAUCAGAGACUUUAGAGGGAGCUUGGAUUACAGACCCCUAACAACAGCAGAUCCUAUUGAUGAACAUAGG: 0.566 ratio
CAGUCCCCGUGUCCCAGUGCAGGACGAUGUGAACAAAUCGAAGACAUGGACCCUCUAUUGUAGUUCUUGAUUCUCGAAAUGUGCUAUUGUUUUUAAACUUUUUUUUUUUUUUUUUAAAGA: 1.31 ratio
CCCCAAUACCAUUUGCAGGUCUGGAACUGCACUCUCUUUUUUAAAAAACAUGUAUACAUUUUAGGGCUGUAGAUUUAUUUUCCUGGUUUUGUUUUUCUUGCUUAUUCUUUGAGCACAGAA: 2.59 ratio
UGUGAACUGUCUCUUGAGAUCUAAAAAAAACAUGAUUUUUCCUGGCACAUAUUCCAAAGCAUAGACUUUGUUGCCUGCUGCUUAUUGUCUAAUUUACAGGGAUAUUUAAUUUUGUCAGGU: 0.217 ratio

Other studies, line by line
P1: viral docking peptide; YKVKRRLVFGADD; partner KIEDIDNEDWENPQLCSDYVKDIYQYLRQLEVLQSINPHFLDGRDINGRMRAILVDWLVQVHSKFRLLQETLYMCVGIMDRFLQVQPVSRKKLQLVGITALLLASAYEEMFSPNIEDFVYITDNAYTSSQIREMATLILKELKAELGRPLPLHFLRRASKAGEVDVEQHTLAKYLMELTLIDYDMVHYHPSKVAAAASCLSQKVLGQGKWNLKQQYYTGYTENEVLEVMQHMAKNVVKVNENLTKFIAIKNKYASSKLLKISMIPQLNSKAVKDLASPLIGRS
PhoQ, residues 284 288 289 292 302 303 SQSLSM — fold induction (PhoP, residues 12 14 15 18 19 LHHVQ (Escherichia coli, UniProt P23836); Sort-seq, refers to: YFP reporter; E. coli; PhoQ-PhoP variant library, with: 10 µM Mg2+; reference: high Mg2+ state, higher = stronger signaling): 0.856
P1 R5A L7A — normalised enrichment score (CCNB2, cyclin fold, Cln2 fusion (human); yeast growth competition, sequencing; yeast; strong parent motif; reference: not given, higher = stronger binding): 0.193

Some of these lines once more (study 2):
UGUGAACUGUCUCUUGAGAUCUAAAAAAAACAUGAUUUUUCCUGGCACAUAUUCCAAAGCAUAGACUUUGUUGCCUGCUGCUUAUUGUCUAAUUUACAGGGAUAUUUAAUUUUGUCAGGU: 0.217 ratio
AAAGUGAUGACUAUGUUUGUCCAACGACAGGUAUUUUCGGAGAGCAAAGAUGAGAUUGCGUUAGUCCUCUAUGGCACAGAUGGCACUGACAAUCCCCUUGCUGGCAAGGACCAGUAUCAG: 0.163 ratio
